Assay results from different studies.
± marks the error that the study gave.

`C#CCN(C(=O)OCc1ccc(B2OC(C)(C)C(C)(C)O2)cc1)[c-]1cccc1.[Fe+2].c1cc[cH-]c1` gave a logP of 5.51 ± 0.17 (RP-TLC; MOPS/acetonitrile; pH 7.4).
For `CC1=C2[O][Ru-]([Cl])[O+]=C2C=CN1CCCCCCN1C=CC2=[O+][Ru-]([Cl])[O]C2=C1C.Cc1ccc(C(C)C)cc1.Cc1ccc(C(C)C)cc1`, the logP was -1.34 (shake flask, UV-vis; n-octanol/water; aqua complex).
`COC(=O)c1ccccc1-c1c2ccc(=O)cc-2oc2cc(OCCCCC[P+](c3ccc(C)cc3)(c3ccc(C)cc3)c3ccc(C)cc3)ccc12` has a logP of 1.43 ± 0.01 (shake-flask HPLC; 1-octanol/water).
`CCOC(=O)c1[nH]c(C)c(/C=C/C2=[N+]3C(=C(c4cc(OC)cc(OC)c4)c4c(C)c(I)c(/C=C/c5c(C)[nH]c(C(=O)OCC)c5C)n4[B-]3(F)F)C(C)=C2I)c1C` gave a logP of 1.88 (octanol/HEPES buffer; pH 7.4, room temperature).
The logP of `[C-]#[O+].[C-]#[O+].[C-]#[O+].[C-]#[O+].[C-]#[O+].[C-]#[O+].[Cl-].[Cl-].[Re+].[Re+].c1cnc(-c2ncccn2)nc1` is reported as 0.22 (shake flask).
`CN1CC[C@H](c2c(O)cc(O)c3c(=O)cc(/C=C/c4c(Cl)cccc4Cl)oc23)[C@H](O)C1` gave a logP of 1.82 ± 0.14 (shake flask; n-octanol/water).
`COCCOCCOCCOCCOCCOCCOCCOCCNC(=O)CCc1ccc(N(c2ccc(CCC(=O)NCCOCCOCCOCCOCCOCCOCCOCCOC)cc2)c2ccc(-c3c4c(c(-c5ccc(N(c6ccc(CCC(=O)NCCOCCOCCOCCOCCOCCOCCOCCOC)cc6)c6ccc(CCC(=O)NCCOCCOCCOCCOCCOCCOCCOCCOC)cc6)cc5)c5nsnc35)N=S=N4)cc2)cc1` gave a logP of -0.64 (shake flask; n-octanol/water).
`O=C([O-])CN1CCN(CC(=O)[O-])CCN(CC(=O)[O-])C(Cc2ccc(NC(=S)NCCc3ccc4c(c3)C3C=CCC3C(c3cc5c(cc3Br)OCO5)N4)cc2)CN(CC(=O)[O-])CC1.[111In+3]` (stereo not shown) has a logP of 5.2 ± 0.3 (octanol/water; In(III) complex).
`Cn1[c]([Ir-3]234([NH3+])[n]5c6ccc5C(c5c(F)c(F)c(F)c(F)c5F)=C5C=CC(=[N+]52)C(c2c(F)c(F)c(F)c(F)c2F)=c2ccc([n]23)=C(c2c(F)c(F)c(F)c(F)c2F)C2=[N+]4C(=C6c3c(F)c(F)c(F)c(F)c3F)C=C2)[n+](C)c2ccccc21.F[P-](F)(F)(F)(F)F` gave a logP of 2.67 (ICP-MS; n-octanol/saline).
`O=[N][Fe]1([N]=O)[S](CCO)[Fe]([N]=O)([N]=O)[S]1CCO` gave a logP of 1 (n-octanol/water).
With `C[C@H](Oc1cc(-c2cnn(C3CCN(CC[18F])CC3)c2)cnc1N)c1c(Cl)ccc(F)c1Cl` the logP was 0.73 (octanol/water partition).
`CC1=C2[O][Ru-]([Cl])[O+]=C2C=CN1CCCCCCCCCCCCN1C=CC2=[O+][Ru-]([Cl])[O]C2=C1C.Cc1ccc(C(C)C)cc1.Cc1ccc(C(C)C)cc1` gave a logP of -0.56 (shake flask, ICP-MS; n-octanol/water; aqua complex).
`FC(F)(F)c1ccc2nc3c4cccnc4c4ncccc4c3nc2c1.[Cl-].[Cl-].[Ru+2].c1ccncc1.c1ccncc1.c1ccncc1.c1ccncc1` gave a logP of -1.14 ± 0.03 (n-octanol/water).
The logP of `CCCCCCCC[P+](c1ccccc1)(c1ccccc1)c1ccccc1` is reported as 0.22 ± 0.02 (shake flask, HPLC; 1-octanol/water).
For `CN(CCCN=Cc1ccccc1O)CCN(C)CCCN=Cc1ccccc1O`, the logP was 1.59 ± 0.03 (1-octanol/saline; pH 7.4, 67Ga complex).
The logP of `CN(C)C(=S)N(C)N=Cc1ccccc1SSc1ccccc1C=NN(C)C(=S)N(C)C` is reported as 4 ± 0.1 (stir-flask, HPLC; octanol/water).
With `COc1cc(OC)cc(C2=C3C(C)=C(I)C(C)=[N+]3[B-](F)(F)n3c(/C=C/c4cccs4)c(I)c(C)c32)c1` the logP was 0.73 (octanol/HEPES buffer; pH 7.4, room temperature).
`Cc1c(C)c(C)[c-](C)c1C.O=C1c2cccc[n+]2[Ir]([Cl])[N]1CCCCCCCCCC[P+](c1ccccc1)(c1ccccc1)c1ccccc1.[Br-]` gave a logP of 0.94 ± 0.12 (shake-flask; octanol/PBS).
With `CN1C(=O)[C@@H](Cc2ccc(O)c(I)c2)NC(=O)CNC(=O)[C@H](Cc2ccc3ccccc3c2)NC(=O)[C@H](CCCNC(=N)N)NC(=O)[C@H]1CCCNC(=O)c1ccc(CNC(=O)CN2CCN(CC(=O)O)CCN(CC(=O)O)CC2)cc1` [fluorine-18 labelled] the logP was -1.4 (octanol/water).
The logP of `CN(C)C(=O)c1ccc(COC(=O)N(Cc2cccc(CN3CCCCC3)c2)[c-]2cccc2)cc1.[Fe+2].c1cc[cH-]c1` is reported as 5.79 ± 0.03 (RP-TLC; MOPS/acetonitrile; pH 7.4).
`CC1=CC(c2cccc(C(F)(F)F)c2)=[O+][Ru-]([Cl])[O]1.Cc1c(C)c(C)c(C)c(C)c1C` gave a logP of 1.2 (shake-flask; octanol-water; 37 °C, Ru measured by ICP-MS, with: 100 mM NaCl).
For `N.N.O=C(CCCc1ccccc1)[O][Pt]([Cl])([Cl])[O]C(=O)CCCc1ccccc1`, the logP was -0.73 ± 0.05 (shake-flask; octanol/water).
For `CCCCCCCC[P+](c1ccc(C)cc1)(c1ccc(C)cc1)c1ccc(C)cc1`, the logP was 1.57 ± 0.02 (shake flask, HPLC; 1-octanol/water).
`C#CCN(C(=O)OCc1ccc(B(O)O)cc1)[c-]1cccc1.[Fe+2].c1cc[cH-]c1` has a logP of 3.35 ± 0.25 (RP-TLC; MOPS/acetonitrile; pH 7.4).
The logP of `COCCOCCOCCOCCOCCOCCOCCNC(=O)CCC1(CCC(=O)NCCOCCOCCOCCOCCOCCOCCOC)c2ccccc2-c2ccc(-c3sc(-c4c5c(c(-c6sc(-c7ccc8c(c7)C(CCC(=O)NCCOCCOCCOCCOCCOCCOCCOC)(CCC(=O)NCCOCCOCCOCCOCCOCCOCCOC)c7ccccc7-8)c7c6OCCO7)c6nsnc46)N=S=N5)c4c3OCCO4)cc21` is reported as -0.41 (shake flask; n-octanol/water).
For `CC[P+](c1ccccc1)(c1ccccc1)c1ccccc1`, the logP was -0.429 (HPLC; octanol/PBS).
The logP of `Cc1c([O][Ru][Cl])c(=O)ccn1CCCCn1ccc(=O)c([O][Ru][Cl])c1C.Cc1ccc(C(C)C)cc1.Cc1ccc(C(C)C)cc1` is reported as -1.38 (shake flask, UV-vis; n-octanol/water; aqua complex).
`CN[P+](c1ccccc1)(c1ccccc1)c1ccccc1` has a logP of -1.28 ± 0.01 (HPLC; octanol/water; 100 µM).
`N=C(N)NCCC[C@@H]1NC(=O)[C@H](CCCCNC(=O)CC[C@H](NC(=O)CC[C@H](NC(=O)CN2CCN(CC(=O)O)CCN(CC(=O)O)CCN(CC(=O)O)CC2)C(=O)N[C@@H](CCC(=O)NCCCC[C@@H]2NC(=O)[C@@H](Cc3ccccc3)NC(=O)[C@H](CC(=O)O)NC(=O)CNC(=O)[C@H](CCCNC(=N)N)NC2=O)C(=O)NCCCC[C@@H]2NC(=O)[C@@H](Cc3ccccc3)NC(=O)[C@H](CC(=O)O)NC(=O)CNC(=O)[C@H](CCCNC(=N)N)NC2=O)C(=O)NCCCC[C@@H]2NC(=O)[C@@H](Cc3ccccc3)NC(=O)[C@H](CC(=O)O)NC(=O)CNC(=O)[C@H](CCCNC(=N)N)NC2=O)NC(=O)[C@@H](Cc2ccccc2)NC(=O)[C@H](CC(=O)O)NC(=O)CNC1=O` [gallium-68 labelled] gave a logP of -3.76 ± 0.07 (octanol/PBS; pH 7.4, room temperature).
For `CC[P+](CC)(CC)[Au-][S][C@@H]1O[C@H](CO)[C@@H](O)[C@H](O)[C@H]1O`, the logP was -0.81 (n-octanol/water).
`COc1cc(O)c(C=NCCCN(C)CCN(C)CCCN=Cc2c(O)cc(OC)cc2OC)c(OC)c1` gave a logP of 2.97 ± 0.04 (1-octanol/saline; pH 7.4, 67Ga complex).
With `CCOC(=O)c1[nH]c(C)c(/C=C/c2c(I)c(C)c3n2[B-](F)(F)[N+]2=C(C)C(I)=C(C)C2=C3c2cc(OC)cc(OC)c2)c1C` the logP was 1.1 (octanol/HEPES buffer; pH 7.4, room temperature).
The logP of `C#CCN(C(=O)OCc1ccc(F)cc1)[c-]1cccc1.[Fe+2].c1cc[cH-]c1` is reported as 4.72 ± 0.15 (RP-TLC; MOPS/acetonitrile; pH 7.4).
The logP of `CC[P+](CC)(CC)[Au-][S][C@@H]1O[C@H](COC(C)=O)[C@H](OC(C)=O)[C@H](OC(C)=O)[C@H]1OC(C)=O` is reported as 0.38 (n-octanol/water).
